Results collected from several papers.
Each numbered part is a random draw from the data of one study; scales do not carry over between parts. Substitutions count along the parent as printed.
Sequence of UniProt P51817 (whole entry, looked up): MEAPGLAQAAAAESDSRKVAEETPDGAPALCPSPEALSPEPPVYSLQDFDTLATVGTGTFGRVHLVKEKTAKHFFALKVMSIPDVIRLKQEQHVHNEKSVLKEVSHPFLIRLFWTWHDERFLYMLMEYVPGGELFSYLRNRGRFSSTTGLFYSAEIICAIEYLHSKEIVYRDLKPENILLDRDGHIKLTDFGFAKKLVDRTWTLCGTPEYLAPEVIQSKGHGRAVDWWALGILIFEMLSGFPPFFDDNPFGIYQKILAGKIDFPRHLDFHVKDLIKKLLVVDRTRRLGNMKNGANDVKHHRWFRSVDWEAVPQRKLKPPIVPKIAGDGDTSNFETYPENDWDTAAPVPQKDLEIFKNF
Sequence of UniProt Q9HCP0 (whole entry, looked up): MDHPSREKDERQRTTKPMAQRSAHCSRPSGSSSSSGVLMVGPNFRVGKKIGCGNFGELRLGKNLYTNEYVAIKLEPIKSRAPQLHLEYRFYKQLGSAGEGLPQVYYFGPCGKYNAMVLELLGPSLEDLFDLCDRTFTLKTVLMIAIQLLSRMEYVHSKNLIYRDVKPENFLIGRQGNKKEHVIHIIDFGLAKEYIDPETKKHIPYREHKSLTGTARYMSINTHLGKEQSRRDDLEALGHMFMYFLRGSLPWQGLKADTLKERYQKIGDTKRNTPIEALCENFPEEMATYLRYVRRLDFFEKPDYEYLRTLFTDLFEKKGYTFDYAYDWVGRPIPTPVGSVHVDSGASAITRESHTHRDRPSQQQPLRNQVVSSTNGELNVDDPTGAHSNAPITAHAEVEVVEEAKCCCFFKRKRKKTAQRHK

Set 1 — technique: DHFR PCA, deep sequencing; sample: yeast; together with: (+)-ABA 2500 µM; relative to: wild-type fitted maximum; direction: higher = stronger binding
Target: ABI1, truncated, D143A, DHFR fusion (Arabidopsis thaliana)
Setting: methotrexate growth selection, single substitutions
Starting sequence: PYL1, truncated, DHFR fusion (Arabidopsis thaliana); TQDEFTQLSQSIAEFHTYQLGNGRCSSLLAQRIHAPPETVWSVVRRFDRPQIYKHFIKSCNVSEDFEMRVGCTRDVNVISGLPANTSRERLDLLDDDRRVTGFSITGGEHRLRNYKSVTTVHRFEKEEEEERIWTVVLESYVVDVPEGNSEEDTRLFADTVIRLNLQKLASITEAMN; partner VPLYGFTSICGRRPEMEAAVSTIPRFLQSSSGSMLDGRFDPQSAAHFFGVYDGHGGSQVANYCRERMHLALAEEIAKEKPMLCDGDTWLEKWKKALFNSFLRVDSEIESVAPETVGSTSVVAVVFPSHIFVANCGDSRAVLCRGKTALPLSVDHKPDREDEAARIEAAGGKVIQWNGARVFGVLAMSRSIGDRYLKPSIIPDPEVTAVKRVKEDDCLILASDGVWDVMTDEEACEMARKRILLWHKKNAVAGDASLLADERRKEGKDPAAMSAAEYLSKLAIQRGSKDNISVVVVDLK
| Substitution | relative binding score [%] |
| --- | --- |
| A175V | 94.4 |
| V142Y | 87.3 |
| K54T | -3.34 |
| K126W | 101 |
| L166A | 36.8 |
| G102L | 16.5 |
| T101M | 101 |
| Q10L | 92.2 |

Set 2 — observed: enzyme activity; action: inhibitor; concentration: 0.5 µM; relative to: control
Target: Mitogen-activated protein kinase kinase kinase 2 (MAP3K2, Homo sapiens, UniProt Q9Y2U5)
Construct (Q9Y2U5 1-619): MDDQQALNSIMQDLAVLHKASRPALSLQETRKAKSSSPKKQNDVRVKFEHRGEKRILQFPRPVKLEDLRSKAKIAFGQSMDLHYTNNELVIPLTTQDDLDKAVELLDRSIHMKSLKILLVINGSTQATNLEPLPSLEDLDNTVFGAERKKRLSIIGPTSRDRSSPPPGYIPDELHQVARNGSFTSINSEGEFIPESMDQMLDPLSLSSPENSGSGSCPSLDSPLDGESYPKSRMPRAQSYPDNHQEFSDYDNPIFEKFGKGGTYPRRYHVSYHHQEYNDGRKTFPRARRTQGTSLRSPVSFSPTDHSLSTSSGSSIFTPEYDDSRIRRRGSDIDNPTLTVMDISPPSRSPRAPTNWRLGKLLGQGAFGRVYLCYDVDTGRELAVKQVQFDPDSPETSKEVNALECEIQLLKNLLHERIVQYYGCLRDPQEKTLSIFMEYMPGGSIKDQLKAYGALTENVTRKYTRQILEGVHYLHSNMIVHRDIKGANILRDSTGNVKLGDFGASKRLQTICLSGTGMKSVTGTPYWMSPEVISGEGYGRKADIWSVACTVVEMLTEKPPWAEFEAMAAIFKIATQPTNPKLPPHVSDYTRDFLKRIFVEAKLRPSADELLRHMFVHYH
| Structure (SMILES) | remaining activity [%] |
| --- | --- |
| O=C1Nc2ccc(Br)cc2/C1=C/c1cc2c([nH]1)CCCC2 | 93.6 |
| CCCCc1c(-c2ccc(O)cc2)[nH]c2nccnc12 | 77.2 |
| c1cc(-c2cnn3cc(-c4ccc(OCCN5CCCCC5)cc4)cnc23)ccn1 | 92.1 |
| CCN(CC)CCCCN1c2ccccc2Oc2ccc(Cl)cc21 | 88.2 |
| CCCNC(=O)Nc1ccc(Oc2ncnc3cc(OC)c(OC)cc23)cc1Cl | 89.5 |
| O=C1NC(=O)/C(=C/c2ccc3c(c2)OC(F)(F)O3)S1 | 94 |
| C[C@@H](N)[C@H]1CC[C@H](C(=O)Nc2ccncc2)CC1 | 104 |
| CC(C)n1cnc2c(Nc3cccc(Cl)c3)nc(NCCO)nc21 | 97.6 |
| COc1ccc2c(c1)c(C1=C(c3c[nH]c4ccccc34)C(=O)NC1=O)cn2CCCN(C)C | 80.6 |
| c1ccc(-c2n[nH]c3c2oc2ccccc23)cc1 | 85.9 |
| COc1ccc(COc2ccc(Cc3cnc(N)nc3N)cc2OC)cc1 | 108 |
| O=C1NC(=O)c2c1c1c3ccccc3[nH]c1n1cncc21 | 97.9 |
| O=c1cc(N2CCOCC2)oc2c(-c3ccccc3)cccc12 | 101 |
| Cc1ccc(S(=O)(=O)/C=C/C#N)cc1 | 91.8 |
| O=c1c(-c2ccc(F)cc2)c(-c2ccncc2)[nH]n1-c1ccc(Cl)cc1 | 98.9 |
| CN(C)S(=O)(=O)c1ccc2c(c1)/C(=C/c1cc3c([nH]1)CCCC3)C(=O)N2 | 37 |
| O=C1NC(=O)c2c1c1c3ccccc3[nH]c1c1[nH]c3cc(Br)ccc3c21 | 100 |
| O=C(c1cc2cc(O)ccc2[nH]1)c1cc2cc(O)ccc2[nH]1 | 102 |

Set 3 — technique: RNAcompete; form: RNA; sample: in vitro; concentration: 20 nM; setting: 7-mer, probes averaged, single round; relative to: mean of 7-mers; direction: higher = stronger binding
Target: PABPC1L2, full length, GST fusion (mouse, UniProt A0ABA7IW68)
Target sequence (chain): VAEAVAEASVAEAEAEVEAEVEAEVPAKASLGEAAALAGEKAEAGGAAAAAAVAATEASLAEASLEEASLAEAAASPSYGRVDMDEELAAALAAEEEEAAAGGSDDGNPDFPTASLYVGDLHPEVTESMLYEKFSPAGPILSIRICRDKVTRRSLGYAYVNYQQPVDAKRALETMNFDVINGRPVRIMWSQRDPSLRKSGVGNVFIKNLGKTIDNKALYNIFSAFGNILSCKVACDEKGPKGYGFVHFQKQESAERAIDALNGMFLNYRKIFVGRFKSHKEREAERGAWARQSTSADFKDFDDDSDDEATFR
| Strand | 7-mer Z-score |
| --- | --- |
| AGGUCAA | 0.128 |
| AGGGGAA | 0.314 |
| AUCUAGA | 0.104 |
| CCCUGCC | -0.503 |
| UGCGGGG | 0.325 |
| GUAAUGG | 0.066 |
| AUAUAGC | 0.00798 |
| AACGUUG | -0.0482 |

Set 4 — observed: cell-free assay; technique: competition with immobilised ligand; concentration: 1 µM
Structure (SMILES): O=C(O)[C@@H]1[C@@H](Cn2nnc3ccccc3c2=O)CC[C@H]1C(=O)c1ccc(OCCC2CCOCC2)cc1
| target | remaining binding |
| --- | --- |
| PRKX (Homo sapiens, UniProt P51817) | 100% |
| Tyrosine-protein kinase ABL1, phosphorylated (ABL1, Homo sapiens, UniProt P00519, M351T) | 95% |
| FLT3 (Homo sapiens, UniProt P36888, N841I) | 98% |
| CSNK1G1 (Homo sapiens, UniProt Q9HCP0) | 99% |

Repeated from above (set 2):
| Structure (SMILES) | remaining activity [%] |
| --- | --- |
| O=c1c(-c2ccc(F)cc2)c(-c2ccncc2)[nH]n1-c1ccc(Cl)cc1 | 98.9 |
| CN(C)S(=O)(=O)c1ccc2c(c1)/C(=C/c1cc3c([nH]1)CCCC3)C(=O)N2 | 37 |
